{"data": "Measurements of several laboratories", "note": "± marks the error that the study gave."}
{"Structure (SMILES)": "O=C(NC[C@H](O)CO)c1ccncc1Nc1ccc(I)cc1F", "test system": "human", "conditions": "oral, 60 mg, single dose alone", "half-life [h]": 5.08}
{"Structure (SMILES)": "COCCCCn1c(C(=O)N(CC(C)C)[C@@H]2CNC[C@H](C(=O)N3CCOCC3)C2)nc2ccccc21", "test system": "non-elderly human, plasma", "conditions": "oral, 80 mg once daily, day 7", "half-life [h]": 11}
{"Structure (SMILES)": "O=C(CCCCCCC(=O)Nc1ccccc1)NO", "test system": "human patients, serum", "conditions": "oral, 1700 mg once daily", "half-life [h]": 11.1}
{"Structure (SMILES)": "CC(=O)c1c(C)c2cnc(Nc3ccc(N4CCNCC4)cn3)nc2n(C2CCCC2)c1=O", "test system": "human", "conditions": "oral, 95 mg/m^2 single dose, day 1", "half-life [h]": "15.9 ± 7"}
{"Structure (SMILES)": "O=C(/C=C/c1cccc(S(=O)(=O)Nc2ccccc2)c1)NO[C@@H]1O[C@H](C(=O)O)[C@@H](O)[C@H](O)[C@H]1O", "test system": "human severe liver dysfunction, plasma", "conditions": "intravenous, 400 mg/m^2, 30 min infusion, cycle 1 day -7, together with: belinostat 400 mg/m^2 iv", "half-life [h]": 4.45}
{"Structure (SMILES)": "CO[C@H]1C[C@@H]2CC[C@@H](C)[C@@](O)(O2)C(=O)C(=O)N2CCCC[C@H]2C(=O)O[C@H]([C@H](C)C[C@@H]2CC[C@@H](OCCO)[C@H](OC)C2)CC(=O)[C@H](C)/C=C(\\C)[C@@H](O)[C@@H](OC)C(=O)[C@H](C)C[C@H](C)/C=C/C=C/C=C/1C", "test system": "healthy adult human, whole blood", "conditions": "0.75 mg single dose, harmonic mean, together with: ritonavir-containing 3D regimen", "half-life [h]": 118}
{"Structure (SMILES)": "COC(=O)N[C@@H](C)CNc1nccc(-c2cn(C(C)C)nc2-c2cc(Cl)cc(NS(C)(=O)=O)c2F)n1", "test system": "human, plasma", "conditions": "oral, dual combination", "half-life [h]": "3 to 4"}
{"Structure (SMILES)": "C=C(C)[C@@H]1CC[C@]2(NCCN3CCS(=O)(=O)CC3)CC[C@]3(C)[C@H](CC[C@@H]4[C@@]5(C)CC=C(C6=CC[C@@](CF)(C(=O)O)CC6)C(C)(C)[C@@H]5CC[C@]43C)[C@@H]12", "test system": "healthy human volunteers", "conditions": "oral, 200 mg, capsule, moderate-fat meal, arithmetic mean", "half-life [h]": 26.6}
{"Structure (SMILES)": "COc1cc2ncnc(Nc3ccc(F)c(Cl)c3)c2cc1OCCCN1CCOCC1", "test system": "human, plasma", "conditions": "oral, 250 mg, together with: vorinostat 300 mg", "half-life [h]": "25.1 ± 5.5"}
{"Structure (SMILES)": "CCCCC1(CCCC)CN(c2ccccc2)c2cc(SC)c(OCC(=O)N[C@@H](C(=O)NCC(=O)O)c3ccccc3)cc2S(=O)(=O)C1", "test": "LC-MS/MS", "test system": "human, plasma", "conditions": "oral, 2.5 mg, single dose, fasted", "half-life [h]": 2.17}
{"Structure (SMILES)": "CC(C)(C)OC[C@@H]1C(=O)NCCN1C(=O)C[C@H](N)Cc1cc(F)c(F)cc1F", "test system": "human", "conditions": "10 mg once daily, day 10, steady state", "half-life [h]": "35.7 ± 9"}
{"Structure (SMILES)": "O=C(c1nc2n(n1)[C@H](c1ccccc1)C[C@@H]2F)C1CC1", "test system": "human, plasma", "conditions": "oral, 75 mg, single dose, high-fat meal, geometric mean", "half-life [h]": 13.3}
{"Structure (SMILES)": "O=C(c1ccc(OCCN2CCCCC2)cc1)c1c(-c2ccc(O)cc2)sc2cc(O)ccc12", "test system": "healthy humans, plasma", "conditions": "oral, 60 mg, together with: chronic green tea", "half-life [h]": 22.7}
{"Structure (SMILES)": "O=C(c1cccnc1-c1ccncc1)N1CCC(O)(Cc2ccccc2)CC1", "test system": "healthy human, plasma", "conditions": "oral, 600 mg once daily, day 1, arithmetic mean", "half-life [h]": 4.83}
{"Structure (SMILES)": "COc1cc(N2CCC(N3CCN(C)CC3)CC2)ccc1Nc1ncc(Cl)c(Nc2ccccc2P(C)(C)=O)n1", "test system": "healthy humans, plasma", "conditions": "oral, 180 mg, alone, geometric mean", "half-life [h]": 24.8}
{"Structure (SMILES)": "CS(=O)(=O)CCNCc1ccc(-c2ccc3ncnc(Nc4ccc(OCc5cccc(F)c5)c(Cl)c4)c3c2)o1", "test system": "human, plasma", "conditions": "oral, multiple dose", "half-life [h]": 16.6}
{"Structure (SMILES)": "CCN1CCN(Cc2ccc(Nc3ncc(F)c(-c4cc(F)c5nc(C)n(C(C)C)c5c4)n3)nc2)CC1", "test system": "human patients, plasma", "conditions": "oral, 150 mg, single dose, geometric mean", "half-life [h]": 17.5}
{"Structure (SMILES)": "CCOc1cc([C@@H](CS(C)(=O)=O)N2C(=O)c3cccc(NC(C)=O)c3C2=O)ccc1OC", "test system": "healthy human, male, plasma", "conditions": "oral, 20 mg single dose, without ketoconazole", "half-life [h]": 7.64}
{"Structure (SMILES)": "Nc1ccc(-c2nc([C@H]3CCc4cc(-c5cc(Cl)ccc5-n5cnnn5)cc(=O)n43)c(F)[nH]2)c(F)n1", "test system": "human, plasma", "conditions": "oral, 150 mg once daily, day 14, fed", "half-life [h]": 24.8}
{"note": "Excerpt of the above:"}
{"Structure (SMILES)": "CCCCC1(CCCC)CN(c2ccccc2)c2cc(SC)c(OCC(=O)N[C@@H](C(=O)NCC(=O)O)c3ccccc3)cc2S(=O)(=O)C1", "test": "LC-MS/MS", "test system": "human, plasma", "conditions": "oral, 2.5 mg, single dose, fasted", "half-life [h]": 2.17}
{"Structure (SMILES)": "CO[C@H]1C[C@@H]2CC[C@@H](C)[C@@](O)(O2)C(=O)C(=O)N2CCCC[C@H]2C(=O)O[C@H]([C@H](C)C[C@@H]2CC[C@@H](OCCO)[C@H](OC)C2)CC(=O)[C@H](C)/C=C(\\C)[C@@H](O)[C@@H](OC)C(=O)[C@H](C)C[C@H](C)/C=C/C=C/C=C/1C", "test system": "healthy adult human, whole blood", "conditions": "0.75 mg single dose, harmonic mean, together with: ritonavir-containing 3D regimen", "half-life [h]": 118}
{"Structure (SMILES)": "O=C(c1nc2n(n1)[C@H](c1ccccc1)C[C@@H]2F)C1CC1", "test system": "human, plasma", "conditions": "oral, 75 mg, single dose, high-fat meal, geometric mean", "half-life [h]": 13.3}
